Measurements gathered from unrelated publications.
Numbered parts are unrelated; each lists some results of a single study. ± gives the spread as reported. ≈ marks a conversion by molar mass, not a printed value.

Set 1 — cell line: Jurkat; time: 72 h
The CC50 of `Cc1ccc(CNC(=O)c2cn(Cc3ccc(Cl)cc3)c3ccc(Oc4ccccc4)cc3c2=O)cc1` is reported as 45.7 ± 7.93 µM.
`O=C(NCc1ccccc1)c1cn(Cc2ccc(C(F)(F)F)cc2)c2ccc(Oc3ccccc3)cc2c1=O` gave a CC50 of 6.99 ± 1.09 µM.
The CC50 of `O=C(NCc1ccc(F)cc1)c1cn(Cc2ccc(F)cc2)c2ccc(Oc3ccccc3)cc2c1=O` is reported as 27.3 ± 2.05 µM.

Mixed results
The inhibition of `COc1cc(-c2nc3ccccc3c(=O)n2Nc2ccc([N+](=O)[O-])cc2[N+](=O)[O-])ccc1OCc1cn(CC(=O)Nc2ccccc2F)nn1` is reported as 21.9 ± 3.59% (mushroom tyrosinase; enzyme activity; 40 µM, with: L-DOPA).
With `CCOC(=O)C1=C[C@@H](OC(CC)CC)[C@H](NC(C)=O)[C@@H](N)C1` the CC50 was > 20 µM (MDCK; cell viability; 2 days).
`O=C(/C=C/c1ccccc1)Nc1ncccn1` has an MIC80 of 25 µM (≈ 5.63 µg/mL) (Candida albicans; wild type; 48 h, 30 °C).
With `CCOc1c([C@H](C)n2nc(C)c3c(N)ncnc32)cc(Cl)c(F)c1[C@@H]1CNC(=O)C1` the half-life was 9.9 h (human patients, Hodgkin lymphoma, plasma; oral, 30 mg, day 15, monotherapy, geometric mean).
`COc1cc(-c2nc3ccccc3c(=O)n2Nc2ccc([N+](=O)[O-])cc2[N+](=O)[O-])ccc1OCc1cn(CC(=O)Nc2ccc([N+](=O)[O-])cc2)nn1` has an inhibition of 41.8 ± 0.79% (mushroom tyrosinase; enzyme activity; 40 µM, with: L-DOPA).

Repeated from above (set 1):
The CC50 of `Cc1ccc(CNC(=O)c2cn(Cc3ccc(Cl)cc3)c3ccc(Oc4ccccc4)cc3c2=O)cc1` is reported as 45.7 ± 7.93 µM.
